Published values collected from several papers.
Parts stem from different laboratories: compare values within a part only.

Block 1
Target: Histone acetyltransferase KAT6A, both winged helices, GST fusion (KAT6A, Homo sapiens, UniProt Q92794, residues 1-181)
Method: protein binding microarray
Molecule type: double-stranded DNA, one strand shown
Matrix: in vitro
Tested at: not given
Setting: 8-mer, flanks averaged, mean of 2 arrays, mostly near background
Reference: not given
Direction: higher = stronger binding
Residues (chain): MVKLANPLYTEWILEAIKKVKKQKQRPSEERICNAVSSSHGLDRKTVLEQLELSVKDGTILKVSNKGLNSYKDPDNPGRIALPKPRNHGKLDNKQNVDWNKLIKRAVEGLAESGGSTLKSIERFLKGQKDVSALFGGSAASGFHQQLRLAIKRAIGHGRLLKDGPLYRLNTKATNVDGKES
Sequence | E-score
ACAACGAG | -0.159
ACTGGATG | -0.13
GTATAAAC | 0.00793
ATTAGCCA | -0.155
ACGTTAGG | -0.0461
AGTAATCG | -0.0982
ACTTATCA | -0.136
CACTAGGA | -0.0837
CTTGCAGA | -0.0021
AAAGTCCG | 0.211
ACGAGATC | -0.0187
TATTGCGA | 0.026
GCCCCCTA | -0.229
ACCACAAC | 0.0101
ACCACCGC | 0.166
CGGGTGGC | 0.128
CTTGACCC | -0.0382
CAACTGAA | -0.0382
ACGGTAAT | 0.185
GACCTGAC | -0.163
ATTCAGAG | -0.113
CCGCATCC | 0.224
CATTGACA | -0.00419
TCGAAAAA | 0.0737
GATTCAAA | -0.0489

Block 2
Target: Prothrombin, mature alpha-thrombin (F2, Homo sapiens, UniProt P00734)
Method: aptamer microarray, sandwich
Molecule type: DNA with 2'F-ANA
Matrix: in vitro
Tested at: 200 nM
Setting: whole 15-mer aptamer, many near background
Together with: Cy3 exosite-II aptamer, 400 nM
Direction: higher = stronger binding
Sequence: GGTTGGTGTGGTTGG
Modification | mean fluorescence intensity
2'F-ANA at 3 4 5 6 8 11 14 | 52.1 a.u.
2'F-ANA at 2 3 4 7 9 10 11 | 264 a.u.
2'F-ANA at 1 2 6 8 9 11 12 13 14 | 63 a.u.
2'F-ANA at 1 2 3 5 10 11 | 49.9 a.u.
2'F-ANA at 5 6 7 9 11 12 13 15 | 79.5 a.u.
2'F-ANA at 2 3 4 6 7 12 13 14 | 256 a.u.
2'F-ANA at 1 2 4 8 9 10 11 12 15 | 58.2 a.u.
2'F-ANA at 2 3 4 6 9 11 13 14 15 | 182 a.u.
2'F-ANA at 1 5 9 13 14 | 53.4 a.u.
2'F-ANA at 2 3 5 8 9 11 12 14 | 59.1 a.u.
2'F-ANA at 2 3 4 11 12 13 | 712 a.u.
2'F-ANA at 3 5 7 8 10 11 15 | 65.8 a.u.
2'F-ANA at 2 5 6 12 14 | 45.6 a.u.
2'F-ANA at 1 2 7 9 12 15 | 337 a.u.
2'F-ANA at 3 7 9 12 15 | 1470 a.u.
2'F-ANA at 2 5 6 10 12 13 14 | 45.6 a.u.
2'F-ANA at 3 4 9 10 11 13 14 15 | 177 a.u.
2'F-ANA at 2 5 6 7 11 13 | 53.9 a.u.
2'F-ANA at 1 2 5 6 7 10 12 | 65.2 a.u.
2'F-ANA at 3 4 5 8 9 | 116 a.u.
2'F-ANA at 1 2 3 5 6 9 11 12 15 | 130 a.u.
2'F-ANA at 5 6 8 12 15 | 163 a.u.
2'F-ANA at 2 3 4 5 7 10 13 14 | 45.9 a.u.
2'F-ANA at 2 4 5 6 8 11 14 | 48.4 a.u.

Block 3
Target: RNA binding protein fox-1 homolog 2, RRM domain, GST-SBP tag (RBFOX2, Homo sapiens, UniProt O43251-10, residues 100-194)
Method: RNA Bind-n-Seq
Molecule type: RNA
Matrix: in vitro
Tested at: 365 nM
Setting: natural RNA segment, single round, ends assumed
Reference: no-protein control
Direction: higher = stronger binding
Residues (chain): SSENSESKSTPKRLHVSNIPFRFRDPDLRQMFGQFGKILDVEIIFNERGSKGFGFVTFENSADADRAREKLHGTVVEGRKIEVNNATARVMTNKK
Sequence | RBNS enrichment (R)
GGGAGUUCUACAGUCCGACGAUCAUUCUGCUAAAAAUGGUCUUAGUUGUCUGAAAAGCCAGCUCUUGAACCUCUUCACAACAGUAUCAACACUGGCUUCUCCCGGUUCAUUUUAUGCGUGCGAGAAGUCAGUGUGGAAUUCUCGGGUGCCAA | 0.216
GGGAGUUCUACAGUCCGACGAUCCACCAGGUGGCAGCAGCCAUCCGUUAUUAUUUCCAAUGGAGACCUAGCCCAGGCCAAGGUAAAGUUAGUUAAUAGCAUUGGGAUAUAGUCACUGUAAUGGUGCUAUUAACUGGAAUUCUCGGGUGCCAA | 0.331
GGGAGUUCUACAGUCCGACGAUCCUUUCCACCAUGUCCUGGGGGCCUGGUUAGUCCCUGGCCAUGGAGUGUGGUGGGAUGGCUGUCUUCUCUCUCCUUGUUACCUCCCUAGGAAAGAAGGGGUUGCUUUAUGGUGGAAUUCUCGGGUGCCAA | 0.302
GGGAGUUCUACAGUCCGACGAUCUUUUUGGACUUUGUAUUUUACUGCAUGUUUUCUUCAUUUUUAAUCAAUAAAGAGUAAAUUGUCCUUAGUGGUGUAUGGACGCUUUAUUUUAGUGGCCGUUGGCGGAGAGCUGGAAUUCUCGGGUGCCAA | 18.1
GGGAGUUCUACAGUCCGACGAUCCACUGAUACCUGCGUUAACAUACUUUGUUUUGCCUAGAGAGGGGCAAUAAAAAUGAACCAAAGGAUAUUUCCAGAAAGGAUUAAGAAAGCUGUUUAAGAAGGCCAUGACUUGGAAUUCUCGGGUGCCAA | 0.383
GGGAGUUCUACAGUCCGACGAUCGUCUUGUCUCCAUUUGGAUAAAAGGAACCAACCAACAAACAAUGCCAUCACUGGAAUUUCCCACCGCUUUGUGAGCCGUGUCGUAUGACCUAGUAAACUUUGUACCAAUUUGGAAUUCUCGGGUGCCAA | 0.64
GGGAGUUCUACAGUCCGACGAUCAUGAAGGGAGCUCAGGAGAGCCGUCUUCAGCUGGGCUGGGGUUGGGGCUGCUGUGAGGAAAACCUGCCAUUGUGGCCCUGGAGAGUCACCAGCAGCUCUUGGGAAGGACUUGGAAUUCUCGGGUGCCAA | 0.464
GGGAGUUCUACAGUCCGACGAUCAGAAUGUCAGUCAGCUGACUUAAAAAACAUUGGUUUUACUAAGUCUGCCUUCCCCUUCUAAGGAAGAACUGAGUGGGUAAGGGACAGGUGUGUAAAAUCUCCAAAUGGAUUGGAAUUCUCGGGUGCCAA | 0.434
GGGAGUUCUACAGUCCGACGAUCUAGAAGCCUGUGGGUUUCGAUGGUUUCUUCUAUACACCUUUUUGGUUGACCAGUAUUACUAUACAAUGUAAGUGUUUUAAAAAAUACGAAAGUAAUACUCUGCACCCCUUUGGAAUUCUCGGGUGCCAA | 0.424

Block 4
Target: Interferon regulatory factor 5, full length, phosphomimetic (IRF5, Homo sapiens, UniProt Q13568-2, residues 1-514, K96S/S451D/S453D/S456D/S462D)
Method: protein-binding microarray
Molecule type: double-stranded DNA, one strand shown
Matrix: in vitro
Tested at: 250 nM
Setting: 60-bp whole probe
Together with: salmon DNA 0.4 mg/ml
Reference: random background probes
Direction: higher = stronger binding
Constant ends, left off below: GCCTAGCAC … GTCTTGATTCGCTTGACGCTGCTG
Sequence | log fluorescence [z-score]
TTAGAACTGGTGTTTCGATTAGTGCTA | 6.23
TTAAGACTGCTTTTCCTTTAGTGCTAG | 0.681
GACGGACTGGACATTCGGGACGTGCTA | -0.436
TTAGGACTGGGTGTCGGTTAGTGCTAG | -0.138
GCCGATATCAGTTTCGAGACGTGCTAG | 7.05
CTAGGTTTCGACACTGGGTTAGTGCTA | 4.91
GACGGTCTCCTTATCTTGACGTGCTAG | -0.065
GACGGTTCCGGATTCGGGACGTGCTAG | 0.131
GACGATCTCAGACTGGAGATGTGCTAG | -0.043
GGCGGTTTCGGTATCGGGACGTGCTAG | 10
GACGAAATGAGTATCGAGACGTGCTAG | 2.84
TTAGGACTGCTTTTCCTTTTGTGCTAG | 0.255
GACGAACTGAGACTGTAGACGTGCTAG | -0.301
CTGCCTAACATGCTTCGAGATGTGCTA | -0.152
GGGAAAATGGCTTTGCAGATGTGCTAG | -0.351
TTAGGACTGGCTCTCGGTTAGTGCTAG | -0.114
TCATTTTTTTACTTCGGACTGTGCTAG | 0.848
TTAGAACTCAGTTTCGATTAGTGCTAG | 9.59
GAGCCTCTGTTTTGAGCACAGTGCTAG | -0.0749
CCAGCTCTTTCGTTACTTCCTGTGCTA | 5.01
GACGGTTTGGGTTTCGGGACGTGCTAG | 2.56
GACGAACTTAGTTTCGAGACGTGCTAG | 6.35
TTAGGTCTCCTTCTCCATTAGTGCTAG | 0.0944
TTCGATCTCAGTCTCGATTAGTGCTAG | 1.5
TTAAGTTTCCTTATCCTTTAGTGCTAG | 1.87

Excerpt of the above (block 2):
Modification | mean fluorescence intensity
2'F-ANA at 1 2 3 5 6 9 11 12 15 | 130 a.u.
2'F-ANA at 2 3 5 8 9 11 12 14 | 59.1 a.u.
2'F-ANA at 2 3 4 5 7 10 13 14 | 45.9 a.u.
2'F-ANA at 2 5 6 12 14 | 45.6 a.u.
2'F-ANA at 1 2 4 8 9 10 11 12 15 | 58.2 a.u.
